Measurements gathered from unrelated publications.
Lines come from different studies, so protocols differ. ± gives the spread as reported.
Mycosin-1: Mycosin-1 (Mycolicibacterium thermoresistibile, UniProt G7CDQ2)
BCHE: Cholinesterase (BCHE, Homo sapiens, UniProt P06276)
OPRM1: Mu-type opioid receptor (OPRM1, Cavia porcellus, UniProt P97266)

Structure (SMILES)	target	test	test system	conditions	scale	inhibition
C=C1C(=O)N[C@@H](C)C(=O)N(C)[C@@H](C)C(=O)N[C@@H]([C@H](OC(=O)[C@@H](NC(C)=O)[C@H](O)C(C)C)C(C)C)C(=O)N(C)[C@@H]([C@@H](C)OC)C(=O)O[C@H](C)[C@H](NC(C)=O)C(=O)O[C@H](Cc2ccccc2)C(=O)N1C	Guanine nucleotide-binding protein subunit alpha-11 (Homo sapiens, UniProt P29992, R183C)	basal IP1 accumulation, inhibitor	HEK293 expressing Gα11 R183C	concentration not given	–	inhibited
N=C(N)NN=C1C=C2CC(=NNC(=N)N)C=C2C1	Mycosin-1	enzyme activity	–	150 µM	baseline: DMSO control	73%
CC(C)OC(=O)C(n1cccn1)n1cccn1.F[P-](F)(F)(F)(F)F.[Cu+].c1ccc(P(c2ccccc2)c2ccccc2)cc1	P4HB (Homo sapiens, UniProt P07237)	enzyme activity, inhibitor	–	50 µM	–	~90%
O=C(O)/C=C/c1cc(O)cc(O)c1	BCHE	enzyme activity, inhibitor, Ellman	–	1000 µg/mL	–	82.1%
S=C(NCc1ccccn1)NCc1ccccn1	BCHE	enzyme activity, inhibitor, Ellman	–	1000 µg/mL	–	70.1%
O=C(O)/C=C/c1ccc(O)cc1	BCHE	enzyme activity, inhibitor, Ellman	–	250 µg/mL	–	64.9%
COc1cccc(/C=C/C(=O)C(c2ccccc2)c2ccccc2)c1OC	PTGS2 (Homo sapiens, UniProt P35354)	enzyme activity, inhibitor, ELISA	–	40 µg/mL	–	80.7 to 92.5%
CC(C)C[C@@H](NC(=O)CNC(=O)/C=C/c1ccco1)C(N)=O	Mycosin-1	enzyme activity	–	150 µM	baseline: DMSO control	67%
C=C(C)[C@]12C[C@@H](C)[C@@]34O[C@](Cc5ccccc5)(O[C@@H]1[C@@H]3C=C(COC(=O)Cc1cc(I)c(O)c(OC)c1)C[C@]1(O)C(=O)C(C)=C[C@@H]41)O2	Trpv1 (Rattus norvegicus, UniProt O35433)	acid-evoked calcium influx, antagonist	HEK293, rat	11.25 µM, pH 5	–	-3 ± 0.55%
O=C(O)CCCC(=O)O	ACHE (Homo sapiens, UniProt P22303)	enzyme activity, inhibitor	–	250 µg/mL	–	61.4 ± 2.09%
[N-]=[N+]=N[C@H]1O[C@H](CO)[C@@H](O)[C@H](O)[C@H]1O	GAA (Homo sapiens, UniProt P10253)	enzyme activity, inhibitor, fluorescence	–	1.43 mM, pH 4, lysate	–	9%
O=c1c(O)c(-c2cc(O)ccc2O)oc2cc(O)cc(O)c12	BCHE	enzyme activity, inhibitor, Ellman	–	250 µg/mL	–	62.1%
O=C(C[P+]([Au-][Cl])(c1ccccc1)c1ccccc1)[O][Ti+2][O]C(=O)C[P+]([Au-][Cl])(c1ccccc1)c1ccccc1.c1cc[cH-]c1.c1cc[cH-]c1	AKT1 (Homo sapiens, UniProt P31749)	kinase activity	–	10 µM	–	≥ 50%
CC(=O)NC(Cc1ccc(Br)c(Cl)c1)C(=O)N[C@@H](C)C(=O)N1CCC[C@H]1C(=O)N1CCC[C@H]1C(=O)N[C@@H](CCC(=O)O)C(=O)N[C@@H](Cc1c[nH]cn1)C(=O)N[C@@H](CO)C(=O)N[C@H](C(=O)N[C@@H](C)C(N)=O)[C@@H](C)OP(=O)(O)O (stereo partly shown)	AXL (Homo sapiens, UniProt P30530)	enzyme activity, inhibitor	–	10 µM	–	0.13%
CC(C)C[C@H](NC(=O)[C@@H]1CCCN1C(=O)[C@H]1NC(=O)[C@H](Cc2ccccc2)NC(=O)CNC(=O)[C@H](NC(=O)[C@@H](N)Cc2ccc(O)cc2)C(C)(C)SSC1(C)C)C(=O)N[C@@H](Cc1c[nH]c2ccccc12)C(=O)NCc1cc(C(F)(F)F)cc(C(F)(F)F)c1	OPRM1	electrically stimulated contraction, agonist	guinea pig isolated ileum	1 µM	–	26%
Cc1ccc(N2CC3CCC(C2)N3C)cc1C(=O)N[C@H](C)c1cc(-c2cnn(C)c2)nc2ccccc12	Cathepsin K (CTSK, Homo sapiens, UniProt P43235)	enzyme activity	–	concentration not given	–	no inhibition
C[C@H](NC(=O)[C@H](CCCNC(=N)N)NC(=O)[C@H](CCC(=O)O)NC(=O)[C@H](CCCNC(=N)N)NC(=O)[C@H](CCCNC(=N)N)NC(=O)[C@@H](NC(=O)[C@H](CCCNC(=N)N)NC(=O)[C@H](C)NC(=O)[C@H](CCCNC(=N)N)NC(=O)[C@H](CCC(=O)O)NC(=O)[C@@H](N)CCCNC(=N)N)[C@@H](C)O)C(=O)N[C@@H](CCCNC(=N)N)C(=O)N[C@H](C(=O)N[C@@H](CCCNC(=N)N)C(=O)N[C@@H](CCC(=O)O)C(=O)N[C@@H](CCCNC(=N)N)C(=O)N[C@@H](C)C(=O)N[C@@H](CCCNC(=N)N)C(=O)N[C@H](C(=O)N[C@@H](CCCNC(=N)N)C(=O)O)[C@@H](C)O)[C@@H](C)O	CLK2	enzyme activity	–	100 µM	–	no inhibition
CC(C)[C@H]1NC(=O)[C@H](CO)NC(=O)c2cc3cc(c2)C(=O)NC[C@H](NC(=O)[C@H](Cc2c[nH]cn2)NC(=O)[C@H](Cc2ccc(C(F)(F)P(=O)(O)O)cc2)NC(=O)[C@@H]2CCCN2C1=O)C(=O)N[C@@H](Cc1ccccc1)C(=O)N[C@@H](Cc1ccc2ccccc2c1)C(=O)N[C@@H](CCCNC(=N)N)C(=O)N[C@@H](CCCNC(=N)N)C(=O)N[C@@H](CCCNC(=N)N)C(=O)N[C@@H](CCCNC(=N)N)C(=O)N[C@H](C(=O)N[C@@H](CCCCN)C(N)=O)CNC3=O	PTPN3 (Homo sapiens, UniProt P26045)	enzyme activity, inhibitor, absorbance	–	1 µM	–	≤ 10%
O=C1CSC(c2cccc(Br)c2)N1c1cc(Cl)ccc1O (stereo not shown)	ARP2/ARP3 (Saccharomyces cerevisiae, UniProt P32381+P47117)	actin polymerization, pyrenyl-actin	–	concentration not given	–	no inhibition
CCCC[C@@H]1NC(=O)[C@H](Cc2ccccc2)NC(=O)CNC(=O)[C@H](NC(=O)[C@@H](N)Cc2ccc(O)cc2)C(C)(C)SSC(C)(C)[C@@H](C(=O)N[C@@H](Cc2c[nH]c3ccccc23)C(=O)NCc2cc(C(F)(F)F)cc(C(F)(F)F)c2)NC(=O)[C@@H]2CCCN2C1=O	OPRM1	electrically stimulated contraction, agonist	guinea pig isolated ileum	1 µM	–	6%
CCN(Cc1ccccc1)C(=O)CCc1nc(CN2CCN(C(=O)Cc3ccc(OC)c(OC)c3)CC2)no1	Sodium channel protein type 11 subunit alpha (Scn11a, Rattus norvegicus, UniProt O88457)	ion current, inhibitor, whole-cell patch clamp	rat DRG neurons	10 µM	–	46.8 ± 7.03%
CC[C@H](C)[C@H](NC(=O)[C@H](CCCNC(=N)N)NC(=O)[C@H](CCCCN)NC(=O)[C@@H]1CCCN1C(=O)[C@@H]1CCCN1CCCN(CC[C@H](N)C(=O)O)C[C@H]1O[C@@H](n2cnc3c(N)ncnc32)[C@H](O)[C@@H]1O)C(=O)N[C@@H](C)C(N)=O	Protein arginine N-methyltransferase 7 (PRMT7, Trypanosoma brucei brucei, UniProt Q582G4)	–	–	10 µM	–	< 40%
CCNC(=O)Nc1ccc(OC/C=C\COc2ccc(CCN)cc2)cc1	Transcription antitermination protein NusB, with NusE (nusB, Bacillus subtilis, UniProt P54520)	protein-protein interaction, inhibitor, competitive ELISA	–	25 µM, 15 min preincubation, 37 °C, added: 200 nM GST-NusE	–	50%
CC[C@H](C)[C@@H]1NC(=O)[C@H](CC(C)C)NC(=O)CNC(=O)[C@H](CCCNC(=N)N)NC(=O)[C@H](Cc2c[nH]c3ccccc23)NC(=O)[C@H](CCSC)NC(=O)[C@H](CO)NC(=O)[C@H](CCC(=O)O)NC(=O)[C@H](Cc2ccccc2)NC(=O)[C@H](CC(=O)O)NC(=O)[C@H]([C@@H](C)O)NC(=O)CNC(=O)[C@H](CCC(=O)O)NC(=O)[C@H]([C@@H](C)O)NC(=O)CNC(=O)[C@H](CC(=O)O)NC1=O	MDM2 (Homo sapiens, UniProt Q00987)	protein-protein interaction, inhibitor, AlphaScreen	–	50 µM	–	> 50%
CC(C)C[C@@H]1NC(=O)[C@H](C(C)C)NC(=O)[C@H](C)NC(=O)[C@H](Cc2ccc(O)cc2)NC(=O)[C@H](CCC(N)=O)NC(=O)[C@H](CC(C)C)NC(=O)[C@@H](Cc2ccc(O)cc2)NC(=O)CSC[C@@H](C(N)=O)NC(=O)[C@H](CCC(=O)O)NC(=O)[C@H](CCCNC(=N)N)NC(=O)[C@H](CCCNC(=N)N)NC(=O)[C@H](CCCCN)NC(=O)[C@H](Cc2c[nH]cn2)NC(=O)[C@H](CCCNC(=N)N)NC1=O	Cathepsin E (CTSE, Homo sapiens, UniProt P14091)	enzyme activity	–	10 µM	–	inactive

Repeated from above:
Structure (SMILES)	target	test	test system	conditions	scale	inhibition
CC(C)[C@H]1NC(=O)[C@H](CO)NC(=O)c2cc3cc(c2)C(=O)NC[C@H](NC(=O)[C@H](Cc2c[nH]cn2)NC(=O)[C@H](Cc2ccc(C(F)(F)P(=O)(O)O)cc2)NC(=O)[C@@H]2CCCN2C1=O)C(=O)N[C@@H](Cc1ccccc1)C(=O)N[C@@H](Cc1ccc2ccccc2c1)C(=O)N[C@@H](CCCNC(=N)N)C(=O)N[C@@H](CCCNC(=N)N)C(=O)N[C@@H](CCCNC(=N)N)C(=O)N[C@@H](CCCNC(=N)N)C(=O)N[C@H](C(=O)N[C@@H](CCCCN)C(N)=O)CNC3=O	PTPN3 (Homo sapiens, UniProt P26045)	enzyme activity, inhibitor, absorbance	–	1 µM	–	≤ 10%
O=C1CSC(c2cccc(Br)c2)N1c1cc(Cl)ccc1O (stereo not shown)	ARP2/ARP3 (Saccharomyces cerevisiae, UniProt P32381+P47117)	actin polymerization, pyrenyl-actin	–	concentration not given	–	no inhibition
CCCC[C@@H]1NC(=O)[C@H](Cc2ccccc2)NC(=O)CNC(=O)[C@H](NC(=O)[C@@H](N)Cc2ccc(O)cc2)C(C)(C)SSC(C)(C)[C@@H](C(=O)N[C@@H](Cc2c[nH]c3ccccc23)C(=O)NCc2cc(C(F)(F)F)cc(C(F)(F)F)c2)NC(=O)[C@@H]2CCCN2C1=O	OPRM1	electrically stimulated contraction, agonist	guinea pig isolated ileum	1 µM	–	6%
